Measurements collected from several papers.
Parts stem from different laboratories: compare values within a part only. Several values in a cell are separate wells, animals, samples, runs or records.
Chain of UniProt P53778 (whole entry, looked up): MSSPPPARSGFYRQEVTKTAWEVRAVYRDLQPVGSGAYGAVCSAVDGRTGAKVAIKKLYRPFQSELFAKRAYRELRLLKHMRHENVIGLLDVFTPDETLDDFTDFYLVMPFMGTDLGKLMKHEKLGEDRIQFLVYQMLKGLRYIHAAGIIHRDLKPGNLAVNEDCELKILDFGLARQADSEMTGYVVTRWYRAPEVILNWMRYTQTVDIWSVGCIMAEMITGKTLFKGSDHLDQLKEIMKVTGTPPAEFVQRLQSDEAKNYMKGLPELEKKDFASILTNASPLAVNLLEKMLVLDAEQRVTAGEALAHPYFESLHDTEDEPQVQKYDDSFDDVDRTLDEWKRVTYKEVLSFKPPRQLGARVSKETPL
Chain of UniProt O14757 (whole entry, looked up): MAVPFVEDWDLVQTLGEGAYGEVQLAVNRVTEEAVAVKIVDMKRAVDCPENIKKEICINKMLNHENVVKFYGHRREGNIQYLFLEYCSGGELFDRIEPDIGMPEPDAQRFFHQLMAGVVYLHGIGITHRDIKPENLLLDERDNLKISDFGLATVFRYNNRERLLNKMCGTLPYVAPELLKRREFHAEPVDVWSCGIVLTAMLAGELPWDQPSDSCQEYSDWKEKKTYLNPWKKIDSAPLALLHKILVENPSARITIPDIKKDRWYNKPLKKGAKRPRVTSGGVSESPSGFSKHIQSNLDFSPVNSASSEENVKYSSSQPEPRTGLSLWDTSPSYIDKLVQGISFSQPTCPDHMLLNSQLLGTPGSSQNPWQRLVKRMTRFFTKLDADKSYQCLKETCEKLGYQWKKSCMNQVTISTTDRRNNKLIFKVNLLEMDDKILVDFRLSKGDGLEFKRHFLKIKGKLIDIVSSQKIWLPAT
Chain of UniProt P51957 (whole entry, looked up): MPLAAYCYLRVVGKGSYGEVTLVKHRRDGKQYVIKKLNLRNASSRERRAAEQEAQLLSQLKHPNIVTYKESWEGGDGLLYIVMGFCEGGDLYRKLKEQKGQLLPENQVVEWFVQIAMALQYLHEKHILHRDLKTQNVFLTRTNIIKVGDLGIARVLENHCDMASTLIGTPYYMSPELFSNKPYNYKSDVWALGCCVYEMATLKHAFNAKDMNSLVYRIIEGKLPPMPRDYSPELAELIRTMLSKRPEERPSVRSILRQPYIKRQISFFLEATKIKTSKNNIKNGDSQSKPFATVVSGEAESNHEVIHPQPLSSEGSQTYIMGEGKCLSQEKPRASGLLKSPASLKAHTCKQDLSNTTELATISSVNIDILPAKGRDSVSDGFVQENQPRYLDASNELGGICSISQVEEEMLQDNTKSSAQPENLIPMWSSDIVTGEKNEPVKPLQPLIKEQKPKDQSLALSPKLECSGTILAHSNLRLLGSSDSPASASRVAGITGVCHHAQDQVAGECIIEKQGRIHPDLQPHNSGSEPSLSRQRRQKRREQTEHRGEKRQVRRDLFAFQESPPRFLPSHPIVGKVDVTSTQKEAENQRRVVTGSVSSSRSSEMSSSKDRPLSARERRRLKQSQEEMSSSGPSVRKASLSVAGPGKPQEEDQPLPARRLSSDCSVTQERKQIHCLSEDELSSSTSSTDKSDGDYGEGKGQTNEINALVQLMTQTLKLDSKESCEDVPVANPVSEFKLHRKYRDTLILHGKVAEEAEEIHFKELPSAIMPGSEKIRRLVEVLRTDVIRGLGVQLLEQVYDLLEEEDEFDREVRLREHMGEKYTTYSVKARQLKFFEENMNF
Chain of UniProt Q9NYY3 (whole entry, looked up): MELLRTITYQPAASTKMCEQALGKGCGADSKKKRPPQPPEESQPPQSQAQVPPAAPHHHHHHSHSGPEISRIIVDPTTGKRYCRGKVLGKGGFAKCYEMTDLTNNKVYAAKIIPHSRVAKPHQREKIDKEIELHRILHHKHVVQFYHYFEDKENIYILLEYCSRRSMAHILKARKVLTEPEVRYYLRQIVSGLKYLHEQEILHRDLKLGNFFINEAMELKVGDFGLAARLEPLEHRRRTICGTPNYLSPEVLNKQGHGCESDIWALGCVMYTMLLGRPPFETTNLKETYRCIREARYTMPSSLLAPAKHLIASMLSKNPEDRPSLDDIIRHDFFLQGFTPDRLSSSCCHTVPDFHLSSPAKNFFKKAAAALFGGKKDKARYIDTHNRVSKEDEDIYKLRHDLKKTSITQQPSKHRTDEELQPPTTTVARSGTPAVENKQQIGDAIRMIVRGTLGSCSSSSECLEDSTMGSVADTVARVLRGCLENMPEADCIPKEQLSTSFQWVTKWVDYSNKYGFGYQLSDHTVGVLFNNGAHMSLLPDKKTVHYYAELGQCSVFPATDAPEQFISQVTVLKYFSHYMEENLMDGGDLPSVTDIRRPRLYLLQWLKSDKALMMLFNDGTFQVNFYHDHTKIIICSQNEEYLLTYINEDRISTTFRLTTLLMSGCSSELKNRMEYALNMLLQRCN
Chain of UniProt P68400 (whole entry, looked up): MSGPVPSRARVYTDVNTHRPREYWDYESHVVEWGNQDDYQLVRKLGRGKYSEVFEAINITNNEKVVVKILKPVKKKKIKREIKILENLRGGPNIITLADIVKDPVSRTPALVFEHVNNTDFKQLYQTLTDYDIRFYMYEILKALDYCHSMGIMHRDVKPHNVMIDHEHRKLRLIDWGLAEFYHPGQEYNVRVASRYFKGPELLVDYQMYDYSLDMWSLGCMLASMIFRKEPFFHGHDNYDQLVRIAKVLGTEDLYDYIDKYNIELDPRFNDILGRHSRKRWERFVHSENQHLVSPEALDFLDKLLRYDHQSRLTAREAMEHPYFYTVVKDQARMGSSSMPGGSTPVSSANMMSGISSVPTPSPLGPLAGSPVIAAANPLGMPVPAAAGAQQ
Chain of UniProt Q12851 (whole entry, looked up): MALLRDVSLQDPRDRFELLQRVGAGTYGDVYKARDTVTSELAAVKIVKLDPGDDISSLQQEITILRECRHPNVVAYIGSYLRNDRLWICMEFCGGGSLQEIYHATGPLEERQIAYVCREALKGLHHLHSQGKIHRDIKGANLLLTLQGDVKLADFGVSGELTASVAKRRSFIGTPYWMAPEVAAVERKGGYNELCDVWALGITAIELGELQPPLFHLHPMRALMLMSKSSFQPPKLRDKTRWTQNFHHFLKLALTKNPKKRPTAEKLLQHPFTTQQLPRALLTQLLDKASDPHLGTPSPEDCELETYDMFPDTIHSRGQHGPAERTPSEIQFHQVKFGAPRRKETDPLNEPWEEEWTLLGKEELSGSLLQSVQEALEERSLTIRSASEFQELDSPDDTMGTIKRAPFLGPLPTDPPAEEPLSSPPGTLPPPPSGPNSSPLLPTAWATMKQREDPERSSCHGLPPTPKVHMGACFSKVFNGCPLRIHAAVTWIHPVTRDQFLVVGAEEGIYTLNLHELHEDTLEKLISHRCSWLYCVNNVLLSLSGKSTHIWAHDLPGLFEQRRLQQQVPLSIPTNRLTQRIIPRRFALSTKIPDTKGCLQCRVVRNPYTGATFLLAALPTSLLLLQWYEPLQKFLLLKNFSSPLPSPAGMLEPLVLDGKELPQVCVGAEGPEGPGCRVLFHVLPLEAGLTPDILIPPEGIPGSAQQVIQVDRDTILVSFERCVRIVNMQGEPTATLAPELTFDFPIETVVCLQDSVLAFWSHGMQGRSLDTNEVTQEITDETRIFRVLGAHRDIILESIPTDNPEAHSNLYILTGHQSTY
Chain of UniProt O15264 (whole entry, looked up): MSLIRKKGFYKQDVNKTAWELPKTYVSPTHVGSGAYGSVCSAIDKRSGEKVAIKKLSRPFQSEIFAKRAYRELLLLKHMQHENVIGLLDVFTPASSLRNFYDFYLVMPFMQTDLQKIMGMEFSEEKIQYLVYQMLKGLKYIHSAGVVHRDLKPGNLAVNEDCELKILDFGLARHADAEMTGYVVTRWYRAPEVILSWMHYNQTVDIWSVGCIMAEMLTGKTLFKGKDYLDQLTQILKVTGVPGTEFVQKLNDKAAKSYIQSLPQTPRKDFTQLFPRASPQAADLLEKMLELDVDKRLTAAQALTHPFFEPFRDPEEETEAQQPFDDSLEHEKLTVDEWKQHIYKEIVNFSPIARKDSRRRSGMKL

Series 1 — observed: binding; technique: radioligand binding; concentration: 10 µM
Target: 5-hydroxytryptamine receptor 7 (HTR7, Homo sapiens, UniProt P34969)
Chain of UniProt P34969 (whole entry, looked up): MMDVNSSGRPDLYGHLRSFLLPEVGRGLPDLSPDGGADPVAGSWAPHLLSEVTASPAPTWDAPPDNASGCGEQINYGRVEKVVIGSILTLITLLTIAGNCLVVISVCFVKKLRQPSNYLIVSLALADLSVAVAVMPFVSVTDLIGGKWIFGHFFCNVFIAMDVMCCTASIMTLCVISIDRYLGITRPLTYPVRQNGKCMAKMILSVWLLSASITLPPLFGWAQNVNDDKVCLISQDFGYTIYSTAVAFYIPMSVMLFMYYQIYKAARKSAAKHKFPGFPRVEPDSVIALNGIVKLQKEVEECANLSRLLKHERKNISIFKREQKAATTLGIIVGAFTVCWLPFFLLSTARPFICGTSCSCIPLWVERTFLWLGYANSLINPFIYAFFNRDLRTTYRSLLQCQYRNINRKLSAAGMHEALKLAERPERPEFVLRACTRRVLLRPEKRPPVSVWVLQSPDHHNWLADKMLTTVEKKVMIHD
Compound | inhibition
O=C1c2ccc(Nc3ccc(F)cc3F)cc2CCc2ccc(OC[C@H](O)CO)cc21 | -9.25%
COc1nc2ccc([C@@](O)(c3ccccc3)C3CCN(C(C)=O)CC3)cc2c(Cl)c1Cc1ccc(-n2cccn2)cc1 | -2.29%
Cc1cc(C)c(-n2ccn3nc(-c4cccnc4)cc23)cc1NC(=O)c1cc(C#N)cc(S(F)(F)(F)(F)F)c1 | -3.4%
CC1=C(C#N)C(c2ccc3c(c2)c(NC(=O)c2ccccc2C)nn3C)C(C#N)=C(C)N1 | 6.72%
CNC(=O)Nc1ccc2c(c1)[C@]1(CC2)OC(=O)N(CC(=O)N(Cc2ccc(F)cc2)[C@@H](C)C(F)(F)F)C1=O | -13%
COc1cccc(CNC(=O)c2nc3scc(COCc4ccc(C(=O)O)cc4)c3c(=O)[nH]2)c1 | -13.9%
CCOC(=O)c1cc2cc(-c3cc(C(=O)NCc4ccc(C(=O)O)cc4)nn3C)ccc2[nH]1 | 5.88%
COc1cc(-c2cn(C3CCc4ccccc4N(CC(F)(F)F)C3=O)nn2)ccc1-n1ccc(C)n1 (stereo not drawn) | 5.84%
O=C(Nc1cccnn1)N1CCC(=Cc2cccc(Oc3ccc(C(F)(F)F)cn3)c2)CC1 | 37.5%
Cc1c(N2CCCC2)nc2ccc(Br)cc2c1C(=O)NC[C@H](CCC(=O)O)c1ccccc1Cl | 0.4%
Cc1c(NC(=O)c2cc(C(N)=O)nc3cc(F)ccc23)c(C(F)(F)F)nn1Cc1ccc(C(C)(C)C)cc1 | -19.1%
O=C([C@H]1C[C@H](O)CN1c1ccc(Cl)cc1)N1CC2COCC(C1)N2Cc1ccc(Cl)cc1 | -13.8%
Cc1nc(N2CC[C@@H](O)C2)ncc1-c1cc(C(F)(F)F)cc2[nH]ncc12 | 10.8%

Series 2 — observed: enzyme activity; mode: inhibitor; concentration: 0.5 µM; relative to: control
SMILES: Nc1nc(Nc2ccc(S(N)(=O)=O)cc2)nn1C(=O)c1c(F)cccc1F
target | remaining activity [%]
MAP3K10 (Homo sapiens, UniProt Q02779) | 77.8
PRKG1 (Homo sapiens, UniProt Q13976) | 86.1
MAPK13 (Homo sapiens, UniProt O15264) | 94.8
WNK2 (Homo sapiens, UniProt Q9Y3S1) | 116
EPHA5 (Homo sapiens, UniProt P54756) | 92.2
CSNK2A1 (Homo sapiens, UniProt P68400) | 104
CHEK1 (Homo sapiens, UniProt O14757) | 76.3
MAPK12 (Homo sapiens, UniProt P53778) | 89.9
MAP4K2 (Homo sapiens, UniProt Q12851) | 58.4
PLK2 (Homo sapiens, UniProt Q9NYY3) | 94.2
NEK4 (Homo sapiens, UniProt P51957) | 79.2

Series 3 — organism: Sarcocystis neurona; observed: parasite growth; concentration: 10 µM; time: 96 h; notes: first screen
SMILES | inhibition [%]
CCCNC(C)C(=O)Nc1ccccc1C (stereo not drawn) | -4.1
Nc1ccn([C@@H]2CS[C@H](CO)O2)c(=O)n1 | 5.8
Oc1ncnc2[nH]ncc12 | -10
NC(=O)c1cccnc1 | 26.7
CO[C@H]1/C=C/O[C@@]2(C)Oc3c(C)c(O)c4c(O)c(c(/C=N/N5CCN(C6CCCC6)CC5)c(O)c4c3C2=O)NC(=O)/C(C)=C\C=C\[C@H](C)[C@H](O)[C@@H](C)[C@@H](O)[C@@H](C)[C@H](OC(C)=O)[C@@H]1C | 21
Cc1onc(-c2ccccc2)c1-c1ccc(S(N)(=O)=O)cc1 | -9.5
CC1(C)O[C@@H]2[C@@H](CO[C@@]3(COS(N)(=O)=O)OC(C)(C)O[C@@H]23)O1 | -2.8
CC/C(=C(\c1ccccc1)c1ccc(OCCN(C)C)cc1)c1ccccc1 | 21.5

Further values, each from its own experiment
SMILES | cell line | concentration | time | with | measurement | value
O=C1CCC(N2Cc3cc(C4CCN(Cc5ccccc5)CC4)ccc3C2=O)C(=O)N1 (stereo not drawn) | Jurkat | 1 nM | 24 h | CD3/CD28 beads, 1:4 | IL-2 level | 98.8 pg/mL and 134 pg/mL and 89.4 pg/mL

A few entries again (series 2):
target | remaining activity [%]
WNK2 (Homo sapiens, UniProt Q9Y3S1) | 116
EPHA5 (Homo sapiens, UniProt P54756) | 92.2
CSNK2A1 (Homo sapiens, UniProt P68400) | 104
